Results of several laboratories.
Numbered parts are unrelated; each lists some results of a single study.

Sample 1
Target: Hepatocyte nuclear factor 3-beta, forkhead domain (FOXA2, Homo sapiens, UniProt Q9Y261, residues 142-269)
Method: protein-binding microarray
Form: double-stranded DNA, one strand shown
Matrix: in vitro
Tested at: not given
Notes: k-mer, scored over probes, only values ≥0.25
Reading: higher = stronger binding
Target sequence (chain): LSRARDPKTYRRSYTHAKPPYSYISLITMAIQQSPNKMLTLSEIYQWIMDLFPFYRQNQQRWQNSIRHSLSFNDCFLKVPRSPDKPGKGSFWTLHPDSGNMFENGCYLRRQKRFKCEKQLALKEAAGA
Sequence	E-score
AATGTGGA	0.305
ATGTATAC	0.344
ATAGTCTG	0.26
AGTATAAC	0.278
AAATGGCA	0.274
ACAAATAG	0.41
TACATAAA	0.332
ATACCAAC	0.251
ATACATAT	0.412
ACTAGTAA	0.255
ATATAATA	0.376
ATGATTAC	0.267
AACATTAC	0.31
AGTCATAG	0.255

Sample 2
Target: Ras GTPase-activating protein-binding protein 1, full length (G3BP1, Homo sapiens, UniProt Q13283)
Sequence of UniProt Q13283 (whole entry, looked up): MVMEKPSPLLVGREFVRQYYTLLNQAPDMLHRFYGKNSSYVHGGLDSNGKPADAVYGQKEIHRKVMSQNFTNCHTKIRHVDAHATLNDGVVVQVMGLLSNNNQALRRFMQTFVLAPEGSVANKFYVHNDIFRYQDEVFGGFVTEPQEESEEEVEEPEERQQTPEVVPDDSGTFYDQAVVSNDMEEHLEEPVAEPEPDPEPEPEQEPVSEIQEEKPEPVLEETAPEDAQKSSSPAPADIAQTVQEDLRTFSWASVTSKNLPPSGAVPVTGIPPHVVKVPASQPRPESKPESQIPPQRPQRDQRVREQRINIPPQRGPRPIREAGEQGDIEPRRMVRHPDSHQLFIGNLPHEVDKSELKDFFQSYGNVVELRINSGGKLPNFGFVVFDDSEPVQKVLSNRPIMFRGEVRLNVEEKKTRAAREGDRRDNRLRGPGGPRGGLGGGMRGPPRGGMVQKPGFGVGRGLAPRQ
Method: RNA Bind-n-Seq
Form: RNA
Matrix: in vitro
Tested at: 200 nM
Notes: whole 134-nt RNA, ends assumed
With: 150 mM KCl
Reference: input library
Reading: higher = stronger binding
Sequence	log2 enrichment
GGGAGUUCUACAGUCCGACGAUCUCCUGUGCUACACAUCGUAUGUACCGAAUCGGGGUUUGGGGAAAAAAAGGGGUUUGGGGAAAGUAUUAUGUUACGCCGUUCGGAUCUGCAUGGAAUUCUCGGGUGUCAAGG	0.806
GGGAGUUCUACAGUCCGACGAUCUCCUGUGCUACACAUCGUAUGUACCGAAUCAAAUUUUUUUAAACCCCCAAACCCCCAAAAAAGUAUUAUGUUACGCCGUUCGGAUCUGCAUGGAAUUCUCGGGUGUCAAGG	-0.198
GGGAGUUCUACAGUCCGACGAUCUCCUGUGCUACACAUCGUAUGUACCGAAUCAAACCCCCCCAAAUUUUUAAAUUUUUAAAAAAGUAUUAUGUUACGCCGUUCGGAUCUGCAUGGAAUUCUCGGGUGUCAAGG	0.321
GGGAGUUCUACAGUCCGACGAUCUCCUCAAGUCCUGUGCUACACAUCGUAUGUACCGAAUCGGGCGGCGGGCGGGAAAGUAUUAUGUUACGCCGUUCGGAUCUGCACUUCCAGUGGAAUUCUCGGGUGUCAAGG	0.686
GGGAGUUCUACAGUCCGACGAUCUCAAGUCCUGUGCUACACAUCGUAUGUACCGAAUCGGAAAAAGGUUUGGAAAGGAAAGUAUUAUGUUACGCCGUUCGGAUCUGCACUUCCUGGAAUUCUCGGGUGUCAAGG	-1.27
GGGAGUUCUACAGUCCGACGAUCCACAGACAACACGCACCCACACAGACACAGAGGGAAGGGGUUGGGAUGGGGACAGGGUGCACAGCAGGGCGGGGUAAAACCCCAGCCCCUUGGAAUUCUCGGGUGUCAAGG	2.02
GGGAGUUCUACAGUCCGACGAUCUGGCAGAGAAAUUGCAGCUGCAGGAGCAGCUCCAGGCAGAAACCGAGCUGUGUGCCGAGGCUGAGGAGCUCCGGGCCCGCCUGACCGCCAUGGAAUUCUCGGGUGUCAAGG	-0.34
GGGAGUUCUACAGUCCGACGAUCUAACUUUAGAGGAGGAUCUGAUGGAUAUGGCAGUGGACGUGGAUUUGGGGAUGGCUUUAAUGGGUAUGGAGGAGGACCUGGAGGUGGCAAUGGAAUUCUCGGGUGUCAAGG	0.22

Sample 3
Target: Centromere-binding protein 1, full length, N-terminal tag (CBF1, Saccharomyces cerevisiae, UniProt P17106, residues 1-351)
Sequence of UniProt P17106 (whole entry, looked up): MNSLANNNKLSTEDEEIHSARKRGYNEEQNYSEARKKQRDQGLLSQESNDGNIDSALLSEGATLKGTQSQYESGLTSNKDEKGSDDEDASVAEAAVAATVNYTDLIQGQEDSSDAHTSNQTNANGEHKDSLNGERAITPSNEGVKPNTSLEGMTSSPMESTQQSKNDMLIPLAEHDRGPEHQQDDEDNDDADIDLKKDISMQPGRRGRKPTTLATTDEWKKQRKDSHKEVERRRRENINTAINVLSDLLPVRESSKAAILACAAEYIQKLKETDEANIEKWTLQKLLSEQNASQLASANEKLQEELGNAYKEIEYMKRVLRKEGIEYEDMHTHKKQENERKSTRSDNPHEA
Method: protein-binding microarray
Form: double-stranded DNA, one strand shown
Matrix: in vitro
Tested at: 0.8 µM
Notes: whole 60-bp probe, no competitor
Reading: higher = stronger binding
Sequence	fluorescence intensity
GAACTGAAGTCCTGGTACGCCACCTGGCACTTCTAGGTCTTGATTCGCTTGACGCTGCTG	507 a.u.
GAAGTTGATAAAGGTCACCTTATACGTTCTATGTAGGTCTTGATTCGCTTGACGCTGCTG	564 a.u.
GAACCATTTTTACACGTGCTCTTTCTTGGCAGCTAGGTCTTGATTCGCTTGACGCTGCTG	7260 a.u.
CTAGTTGAGCAGTGCCCCGTGGAAACGTAAACTTTCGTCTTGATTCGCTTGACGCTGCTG	502 a.u.
CCTAACTACTATACCATCGTGCAATAGCTTCGTACAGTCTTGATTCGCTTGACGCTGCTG	552 a.u.
GAAAGAACTATAAACACGGTGACGAAAAAGAATTAGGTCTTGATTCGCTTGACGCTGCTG	537 a.u.
TGTACGAAGCTATAACTGATCACTATAGTAGTTAGGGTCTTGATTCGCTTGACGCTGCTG	515 a.u.
GAATTGGAATGTGTTCACGTGACGCTATCGACATAGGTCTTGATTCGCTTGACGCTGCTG	18900 a.u.
GAATATCATTTAGGTGACGCCTTGTTCTAAGGCTAGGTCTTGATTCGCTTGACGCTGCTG	493 a.u.

Further values, each from its own experiment
Molecule	target	test	system	setting	scale	quantity	result
PhoQ, residues 284 288 289 292 302 303 NLCILV	PhoP, residues 12 14 15 18 19 HEGLL (Escherichia coli, UniProt P23836)	Sort-seq, refers to: YFP reporter	E. coli	PhoQ-PhoP variant library, with: 10 µM Mg2+	reference: high Mg2+ state, higher = stronger signaling	fold induction	15.8

For quick reference, copied from above (sample 2):
Sequence	log2 enrichment
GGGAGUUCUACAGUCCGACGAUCUCCUCAAGUCCUGUGCUACACAUCGUAUGUACCGAAUCGGGCGGCGGGCGGGAAAGUAUUAUGUUACGCCGUUCGGAUCUGCACUUCCAGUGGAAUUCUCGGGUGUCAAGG	0.686
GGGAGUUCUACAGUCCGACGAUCUCAAGUCCUGUGCUACACAUCGUAUGUACCGAAUCGGAAAAAGGUUUGGAAAGGAAAGUAUUAUGUUACGCCGUUCGGAUCUGCACUUCCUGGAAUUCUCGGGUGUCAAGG	-1.27
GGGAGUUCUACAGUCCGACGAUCCACAGACAACACGCACCCACACAGACACAGAGGGAAGGGGUUGGGAUGGGGACAGGGUGCACAGCAGGGCGGGGUAAAACCCCAGCCCCUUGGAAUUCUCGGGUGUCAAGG	2.02
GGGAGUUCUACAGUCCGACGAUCUGGCAGAGAAAUUGCAGCUGCAGGAGCAGCUCCAGGCAGAAACCGAGCUGUGUGCCGAGGCUGAGGAGCUCCGGGCCCGCCUGACCGCCAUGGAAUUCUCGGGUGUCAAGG	-0.34
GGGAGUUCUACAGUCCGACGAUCUAACUUUAGAGGAGGAUCUGAUGGAUAUGGCAGUGGACGUGGAUUUGGGGAUGGCUUUAAUGGGUAUGGAGGAGGACCUGGAGGUGGCAAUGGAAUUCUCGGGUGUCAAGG	0.22
